Experimental data collected from several papers.
Lines come from different studies, so protocols differ. Values joined by “and” are separate records of one study, mostly repeats; a detail may differ. ± gives the spread as reported.
HDAC6 ZnF-UBD domain: Protein deacetylase HDAC6, ZnF-UBD domain (HDAC6, Homo sapiens, UniProt Q9UBN7)
Sequence of UniProt Q16774 (whole entry, looked up): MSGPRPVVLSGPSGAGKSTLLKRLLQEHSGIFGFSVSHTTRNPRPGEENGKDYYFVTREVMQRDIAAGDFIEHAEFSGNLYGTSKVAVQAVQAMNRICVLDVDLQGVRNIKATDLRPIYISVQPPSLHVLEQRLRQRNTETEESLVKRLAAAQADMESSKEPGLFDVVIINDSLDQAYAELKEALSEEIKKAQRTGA
Sequence of UniProt P51575 (whole entry, unmodified, looked up): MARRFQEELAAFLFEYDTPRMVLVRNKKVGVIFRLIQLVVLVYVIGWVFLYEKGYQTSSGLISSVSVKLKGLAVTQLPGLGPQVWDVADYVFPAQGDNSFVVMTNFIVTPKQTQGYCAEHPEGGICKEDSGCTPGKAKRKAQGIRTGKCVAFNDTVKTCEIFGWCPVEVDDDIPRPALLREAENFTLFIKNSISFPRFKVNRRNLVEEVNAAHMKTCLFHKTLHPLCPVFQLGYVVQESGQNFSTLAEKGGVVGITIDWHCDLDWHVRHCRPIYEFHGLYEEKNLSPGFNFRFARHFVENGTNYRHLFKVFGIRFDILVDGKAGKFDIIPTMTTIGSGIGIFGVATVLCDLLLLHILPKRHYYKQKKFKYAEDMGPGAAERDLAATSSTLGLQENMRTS
Sequence of UniProt Q13133 (whole entry, looked up): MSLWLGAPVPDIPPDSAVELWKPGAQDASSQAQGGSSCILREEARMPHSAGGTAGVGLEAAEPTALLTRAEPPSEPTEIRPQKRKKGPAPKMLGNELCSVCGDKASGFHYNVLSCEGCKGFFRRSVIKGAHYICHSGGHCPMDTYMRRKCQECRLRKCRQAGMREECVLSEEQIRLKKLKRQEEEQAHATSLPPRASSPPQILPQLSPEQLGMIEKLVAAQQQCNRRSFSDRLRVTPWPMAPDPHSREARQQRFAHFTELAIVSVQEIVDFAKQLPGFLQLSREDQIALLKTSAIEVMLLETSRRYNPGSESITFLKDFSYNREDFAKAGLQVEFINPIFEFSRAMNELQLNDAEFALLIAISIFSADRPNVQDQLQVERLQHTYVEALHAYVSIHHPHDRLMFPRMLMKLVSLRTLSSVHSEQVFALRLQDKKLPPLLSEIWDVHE
Sequence of UniProt Q9UBN7 (whole entry, looked up): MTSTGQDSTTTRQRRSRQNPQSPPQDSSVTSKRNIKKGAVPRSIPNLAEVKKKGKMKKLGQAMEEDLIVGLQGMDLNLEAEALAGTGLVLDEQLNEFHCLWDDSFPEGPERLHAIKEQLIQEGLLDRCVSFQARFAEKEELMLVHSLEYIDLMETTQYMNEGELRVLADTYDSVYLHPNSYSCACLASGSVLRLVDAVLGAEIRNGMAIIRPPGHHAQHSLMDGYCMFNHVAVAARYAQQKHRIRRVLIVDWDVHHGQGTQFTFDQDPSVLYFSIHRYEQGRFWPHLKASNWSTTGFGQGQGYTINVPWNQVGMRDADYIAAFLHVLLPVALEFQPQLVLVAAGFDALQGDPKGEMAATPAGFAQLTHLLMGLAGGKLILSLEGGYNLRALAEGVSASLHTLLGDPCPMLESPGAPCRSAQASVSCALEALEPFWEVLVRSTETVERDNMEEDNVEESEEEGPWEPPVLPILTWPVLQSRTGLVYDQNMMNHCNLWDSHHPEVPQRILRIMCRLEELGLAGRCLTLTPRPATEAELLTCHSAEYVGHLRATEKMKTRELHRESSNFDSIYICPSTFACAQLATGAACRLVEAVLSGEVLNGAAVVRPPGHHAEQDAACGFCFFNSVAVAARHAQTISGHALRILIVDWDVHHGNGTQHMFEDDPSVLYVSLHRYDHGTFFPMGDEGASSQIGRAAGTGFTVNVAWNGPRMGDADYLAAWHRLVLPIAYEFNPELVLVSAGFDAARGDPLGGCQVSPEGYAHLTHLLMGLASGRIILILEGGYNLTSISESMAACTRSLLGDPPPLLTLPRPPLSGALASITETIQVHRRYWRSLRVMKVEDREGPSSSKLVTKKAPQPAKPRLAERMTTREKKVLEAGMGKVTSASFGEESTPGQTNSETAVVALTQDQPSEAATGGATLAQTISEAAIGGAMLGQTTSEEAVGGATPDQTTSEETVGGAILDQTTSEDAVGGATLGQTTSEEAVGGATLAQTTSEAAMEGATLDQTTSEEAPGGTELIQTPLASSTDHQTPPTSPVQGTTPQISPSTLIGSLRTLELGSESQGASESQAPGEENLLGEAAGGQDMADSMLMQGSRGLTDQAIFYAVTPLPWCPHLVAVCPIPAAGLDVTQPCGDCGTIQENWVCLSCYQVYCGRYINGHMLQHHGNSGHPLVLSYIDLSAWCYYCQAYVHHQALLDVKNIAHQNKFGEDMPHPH
Sequence of UniProt O75716 (whole entry, looked up): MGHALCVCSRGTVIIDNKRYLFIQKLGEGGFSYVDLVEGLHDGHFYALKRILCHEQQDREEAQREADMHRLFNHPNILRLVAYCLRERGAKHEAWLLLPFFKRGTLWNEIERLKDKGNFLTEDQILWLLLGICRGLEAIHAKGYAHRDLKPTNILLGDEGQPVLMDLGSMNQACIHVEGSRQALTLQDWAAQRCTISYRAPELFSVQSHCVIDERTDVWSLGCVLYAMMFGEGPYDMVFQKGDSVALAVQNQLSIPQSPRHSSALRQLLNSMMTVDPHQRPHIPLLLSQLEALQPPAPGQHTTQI
Sequence of UniProt Q16654 (whole entry, looked up): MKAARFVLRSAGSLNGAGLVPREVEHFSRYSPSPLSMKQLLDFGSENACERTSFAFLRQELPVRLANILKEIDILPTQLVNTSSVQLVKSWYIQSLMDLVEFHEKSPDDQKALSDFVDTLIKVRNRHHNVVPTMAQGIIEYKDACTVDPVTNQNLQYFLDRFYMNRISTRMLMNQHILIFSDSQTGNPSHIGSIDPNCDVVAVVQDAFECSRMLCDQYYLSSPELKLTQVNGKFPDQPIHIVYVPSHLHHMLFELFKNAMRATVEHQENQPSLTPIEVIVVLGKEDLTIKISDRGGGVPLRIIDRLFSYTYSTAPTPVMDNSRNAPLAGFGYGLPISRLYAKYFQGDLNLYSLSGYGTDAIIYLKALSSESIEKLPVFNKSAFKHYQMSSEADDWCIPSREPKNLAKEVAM
Sequence of UniProt Q12791 (whole entry, looked up): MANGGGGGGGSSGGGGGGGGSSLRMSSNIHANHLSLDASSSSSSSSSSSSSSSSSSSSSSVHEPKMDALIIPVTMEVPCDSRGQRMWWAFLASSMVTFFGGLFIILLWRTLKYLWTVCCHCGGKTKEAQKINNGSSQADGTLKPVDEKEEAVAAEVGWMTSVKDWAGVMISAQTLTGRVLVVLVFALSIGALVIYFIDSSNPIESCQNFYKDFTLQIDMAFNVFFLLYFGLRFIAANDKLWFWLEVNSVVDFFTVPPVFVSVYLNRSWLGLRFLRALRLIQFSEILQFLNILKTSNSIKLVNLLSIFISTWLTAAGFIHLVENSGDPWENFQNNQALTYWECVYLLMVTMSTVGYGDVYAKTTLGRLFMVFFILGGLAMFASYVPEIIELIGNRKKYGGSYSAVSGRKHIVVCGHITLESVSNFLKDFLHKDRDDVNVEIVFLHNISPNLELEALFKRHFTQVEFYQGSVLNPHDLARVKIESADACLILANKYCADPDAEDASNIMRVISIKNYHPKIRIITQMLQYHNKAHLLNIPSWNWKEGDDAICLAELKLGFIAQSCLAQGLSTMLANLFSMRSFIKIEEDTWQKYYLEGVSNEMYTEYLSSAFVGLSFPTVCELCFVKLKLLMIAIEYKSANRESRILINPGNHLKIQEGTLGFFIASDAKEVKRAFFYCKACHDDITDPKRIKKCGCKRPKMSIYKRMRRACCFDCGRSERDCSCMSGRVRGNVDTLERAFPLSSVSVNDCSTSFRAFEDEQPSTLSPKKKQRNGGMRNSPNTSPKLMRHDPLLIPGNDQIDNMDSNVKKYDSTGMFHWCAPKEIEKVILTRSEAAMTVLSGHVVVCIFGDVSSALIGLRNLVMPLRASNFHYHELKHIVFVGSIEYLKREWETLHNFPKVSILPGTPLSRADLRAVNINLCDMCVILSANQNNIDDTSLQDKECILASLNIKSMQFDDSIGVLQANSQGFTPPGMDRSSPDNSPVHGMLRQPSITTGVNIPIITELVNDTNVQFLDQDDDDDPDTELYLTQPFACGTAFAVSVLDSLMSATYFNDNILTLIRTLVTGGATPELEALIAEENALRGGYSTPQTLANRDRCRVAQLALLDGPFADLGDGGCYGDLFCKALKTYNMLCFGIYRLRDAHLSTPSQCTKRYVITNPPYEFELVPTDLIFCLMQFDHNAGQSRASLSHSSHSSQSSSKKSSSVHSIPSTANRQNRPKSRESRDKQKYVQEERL

SMILES | target or system | test | system | setting | scale | measurement | result
Nc1ncnc2c1ncn2[C@@H]1O[C@H](COP(=O)(O)CP(=O)(O)OP(=O)(O)O)[C@@H](O)[C@H]1O | P2X purinoceptor 1 (P2RX1, Homo sapiens, UniProt P51575, K136W) | calcium influx | – | 31.6 nM | reference: ionomycin response | calcium influx | 3.54% and 10.4% and 8.81%
COc1cc(-c2cncc3c2CN(C)Cc2cc(N4CCNCC4)ccc2-3)cc(OC)c1OC | PDK4 (Homo sapiens, UniProt Q16654) | kinase activity | – | 1 µM, human enzyme, with: ATP 10 µM | reference: DMSO control | remaining activity | 113%
CC(C)C[C@H](NC(=O)C[C@H](O)[C@H](CC(C)C)NC(=O)[C@H](Cc1c[nH]cn1)NC(=O)CNC(=O)[C@@H](NC(=O)[C@H](C)NC(=O)[C@H](Cc1c[nH]c2ccccc12)NC(=O)[C@H](CCC(N)=O)NC(=O)[C@@H](Cc1ccccc1)NC(=O)COCCOCCNC(=O)CCC(C(=O)O)N1CCN(CC(=O)O)CCN(CC(=O)O)CCN(CC(=O)O)CC1)C(C)C)C(N)=O (stereo partly shown) [lutetium-177 labelled] | – | – | BALB/c nu/nu mice, female, pancreas | 50 pmol, 1 h, with: PA 300 µg | – | tissue uptake | 12 ± 2 %ID/g
O=C(O)CNC(=O)c1ccc(S(=O)(=O)N2CCC(n3c(=O)oc4ccccc43)CC2)cc1 | HDAC6 ZnF-UBD domain | – | – | – | – | Kd | 234 µM
CCCCCCCCC(=O)c1cc(O)c(O)c(O)c1 | NR1H3 (Homo sapiens, UniProt Q13133) | reporter gene, Gal4 hybrid reporter | – | 10 µM | reference: vehicle | activation | 2.4 fold
CC(C)[C@H](NC(=O)[C@H](Cc1ccc(O)cc1)NC(=O)[C@H](Cc1ccc(O)cc1)NC(=O)[C@@H]1CCCN1C(=O)[C@H](CCC(=O)O)NC(=O)[C@H](CCC(=O)O)NC(=O)[C@H](Cc1c[nH]c2ccccc12)NC(=O)[C@@H]1CCCN1C(=O)[C@@H](NC(=O)[C@H](CCC(N)=O)NC(=O)c1ccc2c(c1)C(=O)OC21c2ccc(O)cc2Oc2cc(O)ccc21)C(C)C)C(=O)N[C@H](C(=O)N[C@@H](CCCCN)C(=O)N[C@@H](CCCCN)C(=O)N[C@@H](CO)C(=O)N[C@@H](CO)C(=O)NCC(=O)NCC(N)=O)C(C)C | – | – | human, plasma | intravenous infusion, 200 mg, 0.25 h | – | plasma concentration | 6990 ng/mL
CCCCCCCCCCCCC/C=C/[C@@H](O)[C@H](CO)NC(=O)CCCCCCCCCCCCCCCCC | Protein SET (SET, Homo sapiens, UniProt Q01105) | lipid binding, GFP pull-down LC-MS/MS | A549 overexpressing GFP-tagged protein | – | reference: eluate plus flow-through | lipid fraction bound | 65.4%
Nc1nc2c(ncn2[C@@H]2O[C@H](COP(=O)(O)O)[C@@H](O)[C@H]2O)c(=O)[nH]1 | GUK1 (Homo sapiens, UniProt Q16774) | enzyme activity, NADH-coupled | – | 31.25 µM, with: NaCl 50 mM | – | reaction velocity | 0.0439 µM/s and 0.0127 µM/s and 0.0476 µM/s
O=C(COP(=O)(O)O)[C@@H](O)[C@H](O)[C@H](O)COP(=O)(O)O | Small ribosomal subunit protein mS35 (Homo sapiens, UniProt P82673) | thermal proteome profiling, measured: MRPS35 | HepG2 cell lysate | concentration not given, 57 over 37 °C, mean | reference: compound over control | thermal stability ratio | 0.493
Cc1cnn2ncc(-c3ccnc(N(C)C)n3)c2c1 | ABL1 (Homo sapiens, UniProt P00519, T315I) | KINOMEscan | – | 1 µM | – | remaining binding | 67%
O=C(O)CCC(=O)Nc1ccccc1 | HDAC6 ZnF-UBD domain | – | – | – | – | Kd | > 1000 µM
CN(C)C(=O)C(CCN1CCC(O)(c2ccc(Cl)cc2)CC1)(c1ccccc1)c1ccccc1 | Calcium-activated potassium channel subunit alpha-1, with LRRC26 γ1 subunit (KCNMA1, Homo sapiens, UniProt Q12791) | ion current, inside-out patch, fit of G-V curve | BKα/γ1 channel | 1 µM, with: nominally 0 Ca2+ | – | V1/2 | 8.36 mV
Cc1cc2ccccc2c2ccc3ccccc3c12 | Aryl hydrocarbon receptor (Danio rerio, UniProt Q9YGV3) | reporter gene, agonist, luciferase reporter | ZF-4 | 41.15 µM | reference: vehicle control | fold change | 3.88
O=c1c(Oc2ccccc2)c(C(F)(F)F)oc2c3c(ccc12)OCCO3 | Cullin-1, C-terminal domain with ROC1 (Homo sapiens, UniProt Q13616) | inhibitor | – | up to 80 µM | – | E3 ligase activity | no inhibition
N#Cc1ccc(C[C@@H](Nc2ncc(-c3ccc(F)cc3)o2)C(=O)N2CCc3ccccc32)cc1 | FPR2 (Homo sapiens, UniProt P25090) | cell-based | – | concentration not given | – | activity | inactive
OC(C#Cc1ccc(F)c(F)c1)c1ccccc1 (stereo not shown) | rhlR (Pseudomonas aeruginosa, UniProt P54292) | reporter gene, inhibitor, quorum sensing reporter strain | – | 10 µM, 1.5 h | reference: DMSO | remaining activity | 78%
CC[C@@H]1[C@H](F)C(=O)N[C@@H]1COc1nccc2cc(C(N)=O)c(OC)cc12 | STK16 (Homo sapiens, UniProt O75716) | ATP-site probe binding, ActivX profiling | THP-1 cell lysate | 0.04 mM, Lys2 site | – | inhibition | 13.8%
O=C(O)CC[C@H](NC(=O)N[C@@H](CCCCNC(=O)[C@H](Cc1ccc2ccccc2c1)NC(=O)CCCCCNC(=O)CN1CCN(CC(=O)O)CCN(CC(=O)O)CCN(CC(=O)O)CC1)C(=O)O)C(=O)O [gallium-68 labelled] | – | gamma counting | mouse, PC-3 xenograft, lung | intravenous, 3.7 MBq, 2 h | – | tissue uptake | 1.84 ± 0.51 %ID/g
Cn1cc(-c2ccc(-c3cncc(Cl)c3N3CCC4(CCNC4=O)CC3)cc2)cn1 | COLO 205 | gene expression, microarray, measured: PLK2 mRNA | – | concentration not given, 2 h | reference: untreated cells | log2 fold change | 2.1
CCC1(O)CCCN(C(=O)c2ccc(-c3ccc(F)c(NC(=O)CCl)c3)cc2)C1 (stereo not shown) | DNA dC->dU-editing enzyme APOBEC-3B, C-terminal domain (Homo sapiens, UniProt Q9UH17) | covalent modifier, intact protein mass spectrometry, measured: adduct +25721 Da | – | 250 µM, 1 h, 10-fold molar excess | – | protein adduct | 72.5%
CC(C)=CCC/C(C)=C/C=C/C(C)=C/C=C/C(C)=C/C=C/C=C(C)/C=C/C=C(C)/C=C/C=C(\C)CCC=C(C)C | Beta-lactoglobulin (LGB, Bos taurus, UniProt P02754) | intrinsic fluorescence | – | 303 K | – | quenching rate constant | 5.4e+11 ± 1.58e+11 M⁻¹ s⁻¹
CCOC(=O)C(C)c1n[nH]c2nc(N)[nH]c(=O)c2c1=O (stereo not shown) | folP (Bacteria, UniProt P0AC13) | CETSA HiBiT | Escherichia coli, whole cells | concentration not given | reference: whole cell over lysate ΔTm | target engagement efficiency | 13.4%
